Experimental data gathered from unrelated publications.
Parts stem from different laboratories: compare values within a part only.

Series 1
Target: Histone acetyltransferase KAT6A, both winged helices, GST fusion (KAT6A, Homo sapiens, UniProt Q92794, residues 1-181)
Technique: protein binding microarray
Form: double-stranded DNA, one strand shown
Matrix: in vitro
Concentration: not given
Notes: 8-mer, flanks averaged, mean of 2 arrays, mostly near background
Relative to: not given
Direction: higher = stronger binding
Target sequence (chain): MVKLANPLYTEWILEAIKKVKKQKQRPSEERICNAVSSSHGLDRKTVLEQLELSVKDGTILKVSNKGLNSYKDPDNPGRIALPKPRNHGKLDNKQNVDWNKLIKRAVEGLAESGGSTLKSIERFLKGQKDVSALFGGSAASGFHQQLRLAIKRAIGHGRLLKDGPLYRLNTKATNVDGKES
`GTTGTATA` has an E-score of 0.0609.
The E-score of `TCGACACA` is reported as -0.00331.
`GATAGACA` has an E-score of -0.158.
With `TTACCGAA` the E-score was 0.00068.
`TCATACGA` gave an E-score of -0.0431.
For `CGGCGCCC`, the E-score was 0.299.
`TGATGGAA` has an E-score of -0.107.
`CAGTCATC` gave an E-score of -0.0462.
With `AATGTGTC` the E-score was -0.0309.
`ATATCACA` gave an E-score of -0.114.
With `CAGCATGA` the E-score was -0.274.
`AAGCTATT` gave an E-score of -0.111.
For `GCAGTATA`, the E-score was -0.0572.
`GACTCGAC` gave an E-score of -0.107.
`GGATTACC` has an E-score of -0.00513.
`GAGCTATC` gave an E-score of 0.0662.
`ATTGTACC` has an E-score of -0.0228.
The E-score of `AGTGCCCC` is reported as -0.00825.
`GTGATATA` gave an E-score of 0.0172.
The E-score of `CATGACAG` is reported as -0.0371.
The E-score of `GCGCCCCA` is reported as 0.2.
`GTCACAGA` has an E-score of -0.109.

Series 2
Target: Hepatocyte nuclear factor 3-alpha (Foxa1, Mus musculus, UniProt P35582, residues 1-468, full length assumed)
Technique: EMSA with sequencing
Form: double-stranded DNA, one strand shown
Matrix: in vitro
Concentration: 10 and 20 nM
Notes: whole designed probe, mean of two concentrations, ends assumed
Relative to: negative control set to 0
Direction: higher = stronger binding
Residues (chain): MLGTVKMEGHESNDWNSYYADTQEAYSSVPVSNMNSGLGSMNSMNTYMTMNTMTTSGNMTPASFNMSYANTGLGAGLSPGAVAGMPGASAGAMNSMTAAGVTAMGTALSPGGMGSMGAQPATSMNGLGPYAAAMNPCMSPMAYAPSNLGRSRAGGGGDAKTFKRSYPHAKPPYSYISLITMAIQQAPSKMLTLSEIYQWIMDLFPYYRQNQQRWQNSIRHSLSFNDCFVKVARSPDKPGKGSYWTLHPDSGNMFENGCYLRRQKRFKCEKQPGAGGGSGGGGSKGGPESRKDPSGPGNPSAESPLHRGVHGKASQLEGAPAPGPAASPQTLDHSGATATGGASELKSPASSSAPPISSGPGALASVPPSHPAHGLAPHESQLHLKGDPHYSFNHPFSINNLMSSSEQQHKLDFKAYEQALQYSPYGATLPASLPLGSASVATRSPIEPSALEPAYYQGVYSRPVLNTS
Under “normalised bound fraction”, `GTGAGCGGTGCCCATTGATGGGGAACGGAAGCTCTTTGTACCCCTTTTGCAACTTTTCAGTAAATTTGCAGTTATTTCAAAATATAAAAAGTTAAACATTTGCTAGAAAAGTTTCTAAAAGATTACTCTCGGTTTCTGCTCAAGGGTGGGTGGCTTATGGTTCCCGCAGAGGCATTCCAAGTTACACGATCTGACAAGACATGGAGCGACCTGAGTTTGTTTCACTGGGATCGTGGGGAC` is recorded as -0.00023 ratio.
For `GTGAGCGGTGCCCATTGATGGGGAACAAAGGCTTCATAATGTTTTTGAGGTGTTTTGTAGGCTAGTTTTTGGGTTTGTTTATTTTAAAAAAAAAACTCTTTAATGTTTTTCAGAAGATAAGTAATCTAGAACAATTATACCTTTTTCTTAATGAACGGAAAGAATCAAGGGTGTCCCTAAGGCTGTGGTGAATATAGGAGCAACTGAGGTGAGGGCCAGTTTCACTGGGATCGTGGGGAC`, “normalised bound fraction” read 0.325 ratio.
For `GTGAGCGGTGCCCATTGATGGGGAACATCTTCCCCCTCTTCCTTGCCCCACCAGCTCACCTTCCCGGGTATCTGCAAATAAGGAAATTAATATAAGCCGGCATTCGTTAACCCTCTTCTGGCGCAAACTGCCAGAGCAAACAGATGAATCATGGTCCTTTGGCGACGCCAGGCTCCGGGAGAGCAAAGCACCGTGTCAGGGCCATGATCCGGGGTGGCCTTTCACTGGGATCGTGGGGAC`, “normalised bound fraction” read 0.21 ratio.
Under “normalised bound fraction”, `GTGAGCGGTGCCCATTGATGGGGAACCCAACGTATCAGTATATTCAGCTCCCCTGTTCTTTGTTCTTCATTTTAAACGTTAACTTCCTTGTTCTTTATATCTCCTTGGCCCTAGTCTCAGTAAACAACCCACCAGTTCTAATCAGTAGTTCACATCTGTTCCCCTGGTCACCTGATCCATCCTGAGTCACCCTTGGTCACCTGCTCTGTCCTGAGTCACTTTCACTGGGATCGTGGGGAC` is recorded as 0.0978 ratio.
Under “normalised bound fraction”, `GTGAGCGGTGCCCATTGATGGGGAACCTTATCTGGGCCCATGAGTAAGCCTGCCAGCCCCCTGCTGCCCTGACTGGCGTGAGCAACAGCAATAAATAAATAAGAACAGAGACAAGAAGCTTATGTACTTTGGAGCTCCTGGTTCTATTTGATGTCATTGGACACCAGTTTGCTTTTCTTTAAAGCCTGTTTCTTTTGAACTGGGCTGCCGCAGTCTATATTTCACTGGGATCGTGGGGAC` is recorded as 0.284 ratio.

Series 3
Target: Sal-like protein 4, full length isoform B (SALL4, Homo sapiens, UniProt Q9UJQ4-2, residues 1-616)
Technique: universal PBM
Form: double-stranded DNA, one strand shown
Matrix: in vitro
Concentration: not given
Notes: 8-mer, flanks averaged, mean of replicates
Direction: higher = stronger binding
Construct (chain): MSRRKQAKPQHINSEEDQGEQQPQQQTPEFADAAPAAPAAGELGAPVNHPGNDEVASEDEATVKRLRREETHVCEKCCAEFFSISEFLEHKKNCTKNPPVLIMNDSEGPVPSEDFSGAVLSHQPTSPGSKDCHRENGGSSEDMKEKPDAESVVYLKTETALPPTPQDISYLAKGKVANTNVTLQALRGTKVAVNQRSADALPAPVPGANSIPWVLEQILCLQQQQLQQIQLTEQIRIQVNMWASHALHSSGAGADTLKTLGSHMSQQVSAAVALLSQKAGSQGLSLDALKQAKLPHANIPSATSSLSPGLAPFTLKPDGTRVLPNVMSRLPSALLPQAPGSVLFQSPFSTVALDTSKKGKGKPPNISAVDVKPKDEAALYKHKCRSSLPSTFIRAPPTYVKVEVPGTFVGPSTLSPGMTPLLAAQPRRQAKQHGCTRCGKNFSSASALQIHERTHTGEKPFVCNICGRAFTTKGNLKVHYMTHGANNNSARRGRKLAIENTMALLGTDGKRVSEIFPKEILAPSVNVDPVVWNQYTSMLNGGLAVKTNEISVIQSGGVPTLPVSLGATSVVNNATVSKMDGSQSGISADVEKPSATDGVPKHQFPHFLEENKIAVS
`AGTCTCTC` gave an E-score of -0.155.
With `ACTGTCGA` the E-score was -0.00455.
`AGCGCTTG` gave an E-score of -0.168.
For `ACTCCAGG`, the E-score was -0.197.
`CAAACTTC` gave an E-score of -0.0416.
`AAAACCGT` has an E-score of 0.041.
`ACTTGTAG` has an E-score of 0.218.
`GCTTGCTA` has an E-score of -0.166.
`CGTTGTGC` has an E-score of -0.00773.
The E-score of `AGCACCCG` is reported as -0.349.
`GCACTGGC` gave an E-score of -0.2.
With `GAAACTGC` the E-score was -0.155.
For `CCGCCCGG`, the E-score was -0.358.
With `GTATCTGA` the E-score was 0.0716.
For `AAGGCCTC`, the E-score was -0.157.
With `AAACTAAC` the E-score was 0.104.
For `TATCCTAA`, the E-score was 0.193.
The E-score of `GCCGGAAC` is reported as -0.219.
The E-score of `CTGGCTTC` is reported as -0.277.
`CGTTGCTC` has an E-score of -0.201.

Series 4
Target: RNA binding protein fox-1 homolog 2, RRM domain, GST-SBP tag (RBFOX2, Homo sapiens, UniProt O43251-10, residues 100-194)
Technique: RNA Bind-n-Seq
Form: RNA
Matrix: in vitro
Concentration: 365 nM
Notes: natural RNA segment, single round, ends assumed
Relative to: no-protein control
Direction: higher = stronger binding
Target sequence (chain): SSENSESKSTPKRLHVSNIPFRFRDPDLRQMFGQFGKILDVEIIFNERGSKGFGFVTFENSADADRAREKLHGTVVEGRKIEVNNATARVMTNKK
For `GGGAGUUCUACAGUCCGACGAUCAUUCUUAGUAUGCGUUGCAUCGGGGAUUUUAGACCAGGCUGCCUCUGAAAUGGUUAUUUGCAGCCCAAUUCCUCAGUGUCAAUGAUCCUUUCUGAGGCUUGGCUUUAGAAUGGAAUUCUCGGGUGCCAA`, “RBNS enrichment (R)” read 4.02.
For `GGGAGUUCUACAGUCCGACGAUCGAAGCAAUGUGGGGCGCUGCGAGCCCCUCCCAGUCCUCUAGAGACUGUCUCCUUUCUGCCUCUGGUUCUCUUUGUUGUUGUUACGUUUCAUUCCAGUUUUUGUUUUUAAUUGGAAUUCUCGGGUGCCAA`, “RBNS enrichment (R)” read 2.
`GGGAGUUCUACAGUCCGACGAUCUGUCCGUCUUUCUGCUGCACACCUGGACCAAGCUUGCAGGCUGCCAGACUCACUCAACCUCCAGAGAGAGGAGCCAAGCCUAUGGGAAGUGGGGAGGGACUGCCUGAGGCUGGAAUUCUCGGGUGCCAA` — result for “RBNS enrichment (R)”: 0.472.
`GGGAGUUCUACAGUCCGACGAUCACAAAUUUAAUAUAAAUCAAAGACCAGCAUUUUAACUACAAAUGGUAGUUGUUUAACCAUCAUAUUUCUCUUUAAAGUACACAAAAUUCUUGGAUCUGGAAAGAUAACUCUGGAAUUCUCGGGUGCCAA` — result for “RBNS enrichment (R)”: 0.728.
`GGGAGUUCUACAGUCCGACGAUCCUGGAACUGGAGAAGAGGAGGCCCCGCCCCACCGCUCCGGGAGCUGCUCAUCAGCCGCAACUUCCUGCCGACCCUGAUGCGGGUGGGCCGAGCAGUGUGGACAUCAGCCAUGGAAUUCUCGGGUGCCAA`: “RBNS enrichment (R)” 0.22.
`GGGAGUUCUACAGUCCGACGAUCAAUCCAAAUAUCAAUUUGACAGAAUAACAAGGGUCAGAAAUUCAAAAUAGCUGUUAGACACCUUUGAUUCUUUGCUGCUCUCUGGUUAUGUAUGUGUGUUGUGCAUCUUCUGGAAUUCUCGGGUGCCAA`: “RBNS enrichment (R)” 0.753.
`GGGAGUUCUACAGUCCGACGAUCCCGGGUUCCCCUCUGGAGCCACGGGGAACAGGGUAGGAAAAGGAGAAGAAGCACCGUGCGCAUACAGCCCACCGCAGAAGCAGCAGGUGCAGGGUGCGCGAAUGCGCAAGUGGAAUUCUCGGGUGCCAA` — result for “RBNS enrichment (R)”: 0.865.
For `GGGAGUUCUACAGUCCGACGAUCAUGUUAAAAUAGCAUACUGUGUAUGUUUUAUCCAAAUUCAUUCAUGAAUCUUUCAUAUAUAUAUGCAUAUAUAUACAUAUAUUGUAGAGUGUGAAUAUUCUUAUUUAAAGUGGAAUUCUCGGGUGCCAA`, “RBNS enrichment (R)” read 0.49.

Some of these lines once more (series 3):
With `ACTGTCGA` the E-score was -0.00455.
`AGCGCTTG` gave an E-score of -0.168.
For `ACTCCAGG`, the E-score was -0.197.
`CAAACTTC` gave an E-score of -0.0416.
`AAAACCGT` has an E-score of 0.041.
`ACTTGTAG` has an E-score of 0.218.
`GCTTGCTA` has an E-score of -0.166.
